Results collected from several papers.
Numbered parts are unrelated; each lists some results of a single study.
Chain of UniProt Q8WU08 (whole entry, looked up): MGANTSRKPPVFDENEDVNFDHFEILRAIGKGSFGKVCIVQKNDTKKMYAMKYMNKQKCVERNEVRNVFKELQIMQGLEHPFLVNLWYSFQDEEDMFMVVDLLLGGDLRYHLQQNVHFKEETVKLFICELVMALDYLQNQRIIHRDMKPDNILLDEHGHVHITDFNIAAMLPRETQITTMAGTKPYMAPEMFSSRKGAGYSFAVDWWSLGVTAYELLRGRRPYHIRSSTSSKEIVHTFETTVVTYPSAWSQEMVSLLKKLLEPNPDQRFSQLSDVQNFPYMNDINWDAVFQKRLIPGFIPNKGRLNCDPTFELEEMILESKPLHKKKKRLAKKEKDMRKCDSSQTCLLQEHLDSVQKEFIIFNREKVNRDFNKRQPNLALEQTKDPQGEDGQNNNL
Chain of UniProt Q9UM73 (whole entry, unmodified, looked up): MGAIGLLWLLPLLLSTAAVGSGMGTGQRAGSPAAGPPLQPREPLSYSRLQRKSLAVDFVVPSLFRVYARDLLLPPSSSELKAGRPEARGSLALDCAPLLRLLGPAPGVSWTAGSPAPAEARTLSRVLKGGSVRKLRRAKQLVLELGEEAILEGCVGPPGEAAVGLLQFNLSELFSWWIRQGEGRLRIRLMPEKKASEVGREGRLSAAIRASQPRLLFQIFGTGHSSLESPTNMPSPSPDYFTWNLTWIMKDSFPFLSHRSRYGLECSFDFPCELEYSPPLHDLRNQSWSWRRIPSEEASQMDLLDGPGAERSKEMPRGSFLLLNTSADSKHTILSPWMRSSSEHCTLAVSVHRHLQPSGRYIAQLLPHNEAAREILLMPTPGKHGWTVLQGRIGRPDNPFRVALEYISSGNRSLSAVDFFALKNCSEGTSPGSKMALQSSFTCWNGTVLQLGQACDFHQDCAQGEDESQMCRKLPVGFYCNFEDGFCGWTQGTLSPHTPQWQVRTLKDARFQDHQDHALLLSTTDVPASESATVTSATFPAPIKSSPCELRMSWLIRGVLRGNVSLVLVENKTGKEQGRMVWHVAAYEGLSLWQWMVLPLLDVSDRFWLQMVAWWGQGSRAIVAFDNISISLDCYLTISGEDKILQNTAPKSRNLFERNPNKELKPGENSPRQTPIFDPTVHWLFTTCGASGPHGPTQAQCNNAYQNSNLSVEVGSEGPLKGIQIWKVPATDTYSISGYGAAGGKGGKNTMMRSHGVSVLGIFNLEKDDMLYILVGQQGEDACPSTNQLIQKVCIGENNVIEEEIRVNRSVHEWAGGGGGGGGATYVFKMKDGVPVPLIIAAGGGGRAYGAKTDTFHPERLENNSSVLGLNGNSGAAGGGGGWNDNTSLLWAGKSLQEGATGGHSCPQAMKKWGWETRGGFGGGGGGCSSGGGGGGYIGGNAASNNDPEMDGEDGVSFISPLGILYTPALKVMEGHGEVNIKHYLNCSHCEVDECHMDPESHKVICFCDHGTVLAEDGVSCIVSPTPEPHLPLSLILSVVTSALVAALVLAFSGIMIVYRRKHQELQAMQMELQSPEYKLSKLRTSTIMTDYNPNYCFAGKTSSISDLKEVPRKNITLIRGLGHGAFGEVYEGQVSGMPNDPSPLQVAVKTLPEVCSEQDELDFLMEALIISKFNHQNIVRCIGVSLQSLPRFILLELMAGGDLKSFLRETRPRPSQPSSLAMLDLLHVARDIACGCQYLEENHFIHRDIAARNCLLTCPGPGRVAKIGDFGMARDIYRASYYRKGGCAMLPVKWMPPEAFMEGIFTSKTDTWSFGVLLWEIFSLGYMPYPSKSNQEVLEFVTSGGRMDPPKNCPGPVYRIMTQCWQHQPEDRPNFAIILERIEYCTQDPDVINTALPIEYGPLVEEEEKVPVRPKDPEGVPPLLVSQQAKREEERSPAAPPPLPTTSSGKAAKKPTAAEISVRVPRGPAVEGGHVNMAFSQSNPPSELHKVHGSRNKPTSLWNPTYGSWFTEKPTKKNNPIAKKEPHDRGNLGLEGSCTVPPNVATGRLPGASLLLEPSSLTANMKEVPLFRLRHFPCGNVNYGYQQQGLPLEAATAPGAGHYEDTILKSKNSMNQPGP
Chain of UniProt Q14012 (whole entry, looked up): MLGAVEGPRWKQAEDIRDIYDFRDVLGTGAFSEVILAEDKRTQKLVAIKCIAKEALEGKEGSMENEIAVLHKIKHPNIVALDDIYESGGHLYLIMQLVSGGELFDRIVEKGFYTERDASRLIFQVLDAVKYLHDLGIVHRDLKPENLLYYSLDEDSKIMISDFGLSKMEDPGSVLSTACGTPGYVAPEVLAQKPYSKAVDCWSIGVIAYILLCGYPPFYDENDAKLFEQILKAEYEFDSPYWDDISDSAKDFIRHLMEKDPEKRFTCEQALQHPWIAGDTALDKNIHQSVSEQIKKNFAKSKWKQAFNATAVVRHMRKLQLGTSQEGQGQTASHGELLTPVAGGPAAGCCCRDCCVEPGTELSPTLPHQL
Chain of UniProt P29376 (whole entry, looked up): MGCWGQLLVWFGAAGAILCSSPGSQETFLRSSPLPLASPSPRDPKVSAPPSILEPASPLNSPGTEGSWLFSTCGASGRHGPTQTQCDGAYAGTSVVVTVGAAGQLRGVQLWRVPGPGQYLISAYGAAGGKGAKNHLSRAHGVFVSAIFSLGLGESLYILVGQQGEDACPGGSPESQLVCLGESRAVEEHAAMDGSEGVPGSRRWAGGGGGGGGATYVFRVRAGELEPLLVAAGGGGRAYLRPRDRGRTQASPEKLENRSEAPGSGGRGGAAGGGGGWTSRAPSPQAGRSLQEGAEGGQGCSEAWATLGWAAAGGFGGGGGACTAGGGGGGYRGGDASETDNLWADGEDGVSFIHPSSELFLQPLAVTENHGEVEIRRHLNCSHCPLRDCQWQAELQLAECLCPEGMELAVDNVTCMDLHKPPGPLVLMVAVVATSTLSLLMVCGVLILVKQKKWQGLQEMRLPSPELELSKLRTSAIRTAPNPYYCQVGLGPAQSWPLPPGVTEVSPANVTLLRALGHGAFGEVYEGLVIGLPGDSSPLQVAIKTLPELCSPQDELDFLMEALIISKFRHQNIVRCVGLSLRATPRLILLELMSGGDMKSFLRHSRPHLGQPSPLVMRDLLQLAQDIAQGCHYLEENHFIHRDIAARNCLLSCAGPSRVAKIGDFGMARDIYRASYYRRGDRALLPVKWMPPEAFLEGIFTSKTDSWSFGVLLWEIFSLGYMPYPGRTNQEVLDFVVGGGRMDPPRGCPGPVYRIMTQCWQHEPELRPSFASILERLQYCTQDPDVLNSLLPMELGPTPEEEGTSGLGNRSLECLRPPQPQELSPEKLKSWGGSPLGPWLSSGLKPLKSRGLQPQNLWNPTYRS
Chain of UniProt P51817 (whole entry, looked up): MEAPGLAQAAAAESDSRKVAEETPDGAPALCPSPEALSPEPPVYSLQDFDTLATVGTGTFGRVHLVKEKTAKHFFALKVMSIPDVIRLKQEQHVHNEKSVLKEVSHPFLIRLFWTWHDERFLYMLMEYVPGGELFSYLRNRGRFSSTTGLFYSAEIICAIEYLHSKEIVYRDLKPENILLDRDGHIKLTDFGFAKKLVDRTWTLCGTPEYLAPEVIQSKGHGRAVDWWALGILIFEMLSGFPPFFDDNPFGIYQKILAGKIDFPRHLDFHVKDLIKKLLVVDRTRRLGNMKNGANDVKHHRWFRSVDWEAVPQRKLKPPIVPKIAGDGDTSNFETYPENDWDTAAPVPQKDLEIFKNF
Chain of UniProt P11802 (whole entry, looked up): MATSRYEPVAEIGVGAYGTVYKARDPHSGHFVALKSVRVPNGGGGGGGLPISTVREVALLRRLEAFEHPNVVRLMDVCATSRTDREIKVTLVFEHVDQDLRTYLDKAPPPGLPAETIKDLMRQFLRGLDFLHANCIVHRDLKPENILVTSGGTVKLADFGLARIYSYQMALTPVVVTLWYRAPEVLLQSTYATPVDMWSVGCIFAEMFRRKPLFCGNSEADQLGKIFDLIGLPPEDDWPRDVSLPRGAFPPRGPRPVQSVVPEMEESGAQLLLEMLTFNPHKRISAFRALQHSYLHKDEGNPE

Study 1
Structure (SMILES): COc1cc(C(=O)N2CCC(N3CCN(C)CC3)CC2)ccc1Nc1ncc2c(n1)N(C)c1ccccc1C(=O)N2C
Method: KINOMEscan
Concentration: 10 µM
Reference: DMSO control
Direction: lower = stronger binding
target | binding
MST4 | 95%
AXL | 100%
GRK1 | 91%
LIMK1 | 95%
STK39 | 39%
MARK4 | 78%
SGK3 | 95%
ASK1 | 100%
LIMK2 | 100%
FGFR1 | 86%
MARK2 | 100%
PRKCI | 100%
SYK | 100%
SRPK2 | 100%
NEK4 | 95%

Study 2
Target: Serine/threonine-protein kinase D3 (PRKD3, Homo sapiens, UniProt O94806)
Chain of UniProt O94806 (whole entry, looked up): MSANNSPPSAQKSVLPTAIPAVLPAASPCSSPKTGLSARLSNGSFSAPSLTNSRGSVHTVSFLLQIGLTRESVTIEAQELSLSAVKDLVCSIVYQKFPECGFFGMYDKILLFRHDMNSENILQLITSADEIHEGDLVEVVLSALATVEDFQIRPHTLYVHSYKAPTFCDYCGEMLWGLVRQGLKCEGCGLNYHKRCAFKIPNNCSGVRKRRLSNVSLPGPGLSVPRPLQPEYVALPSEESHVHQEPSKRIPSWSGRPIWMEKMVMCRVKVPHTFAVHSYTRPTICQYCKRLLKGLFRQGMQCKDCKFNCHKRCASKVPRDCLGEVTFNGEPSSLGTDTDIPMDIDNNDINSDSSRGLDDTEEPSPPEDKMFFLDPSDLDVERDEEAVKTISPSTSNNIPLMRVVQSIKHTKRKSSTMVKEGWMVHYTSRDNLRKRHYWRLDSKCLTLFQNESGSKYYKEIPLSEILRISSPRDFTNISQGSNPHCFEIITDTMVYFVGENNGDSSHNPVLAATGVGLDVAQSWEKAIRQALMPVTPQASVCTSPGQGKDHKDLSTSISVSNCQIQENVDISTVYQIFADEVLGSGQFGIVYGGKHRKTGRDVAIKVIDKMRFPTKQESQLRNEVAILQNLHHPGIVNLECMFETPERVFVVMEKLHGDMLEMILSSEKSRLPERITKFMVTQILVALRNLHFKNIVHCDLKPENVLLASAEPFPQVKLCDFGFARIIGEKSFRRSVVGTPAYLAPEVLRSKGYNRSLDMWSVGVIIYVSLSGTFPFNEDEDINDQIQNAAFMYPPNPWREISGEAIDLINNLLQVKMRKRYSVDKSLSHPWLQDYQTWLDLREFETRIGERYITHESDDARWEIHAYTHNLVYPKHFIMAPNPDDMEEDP
Observed: enzyme activity
Action: inhibitor
Concentration: 0.5 µM
Reference: control
Structure (SMILES) | remaining activity
NC(=O)c1ccc(-c2nc(-c3ccc4c(c3)OCCO4)c(-c3ccccn3)[nH]2)cc1 | 85.1%
CCN(CC)CCCCN1c2ccccc2Oc2ccc(Cl)cc21 | 97.1%
Nc1nc(Nc2ccc(S(N)(=O)=O)cc2)nn1C(=S)Nc1c(F)cccc1F | 7.37%
O=C(O)/C=C/c1cc(Br)c(Br)c(Br)c1Br | 87.9%
O=c1c(-c2ccc(F)cc2)c(-c2ccncc2)[nH]n1-c1ccc(Cl)cc1 | 74.5%
O=Nc1c(-c2c(O)[nH]c3ccccc23)[nH]c2ccccc12 | 88.4%
C[C@@H](N)[C@H]1CC[C@H](C(=O)Nc2ccncc2)CC1 | 87.3%
N#C/C(=C(/N)SC1C=CC=CC1)c1cccc(C(O)c2ccncc2)c1 (stereo not drawn) | 96.3%
CCCCc1c(-c2ccc(O)cc2)[nH]c2nccnc12 | 67.4%
CNc1cc2c(Nc3cccc(Br)c3)ncnc2cn1 | 78.5%
O=C1NC(=O)/C(=C/c2ccc3c(c2)OC(F)(F)O3)S1 | 91.4%
CC(C)n1cnc2c(Nc3cccc(Cl)c3)nc(NCCO)nc21 | 88.4%
N#CC(c1ccnc(NCCc2cccnc2)n1)c1nc2ccccc2s1 (stereo not drawn) | 64.7%
CC(C)(C)c1nc2c3cc[nH]c(=O)c3c3cc(F)ccc3c2[nH]1 | 10.8%
FC(F)(F)c1ccc(/C=C/c2nc(COc3ccc(CCCCn4ccnn4)cc3)co2)cc1 | 93.3%
CC(C)N(CCC(=O)c1ccc2ccccc2c1)Cc1ccccc1 | 98.1%
c1cc(-c2cnn3cc(-c4ccc(OCCN5CCCCC5)cc4)cnc23)ccn1 | 73.2%
COc1cc2c(N3CCN(C(=O)Nc4ccc(OC(C)C)cc4)CC3)ncnc2cc1OCCCN1CCCCC1 | 97.3%
NC(=O)c1cccc(-c2cc(Nc3ccc(OC(F)(F)F)cc3)ncn2)c1 | 93.2%
Clc1ccc(Nc2nnc(Cc3ccncc3)c3ccccc23)cc1 | 94.7%
O=C1c2ccccc2-c2nc3nnnn3nc21 | 83.4%
O=C(c1ccccc1)c1ccc(N2CCOCC2)cc1O | 96.1%

Study 3
SMILES: CC(C)(O)c1cncc(-c2nc3ccc(F)cc3n2C2CC2)c1
Observed: cell-free assay
Method: competition with immobilised ligand
Concentration: 1 µM
target | remaining binding
MAPKAPK5 (Homo sapiens, UniProt Q8IW41) | 100%
ACVR2A (Homo sapiens, UniProt P27037) | 87%
IRAK3 (Homo sapiens, UniProt Q9Y616) | 100%
Ribosomal protein S6 kinase alpha-3, C-terminal kinase domain (RPS6KA3, Homo sapiens, UniProt P51812) | 69%
CDK14 (Homo sapiens, UniProt O94921) | 100%
LTK (Homo sapiens, UniProt P29376) | 100%
PRKG2 (Homo sapiens, UniProt Q13237) | 90%
KDR (Homo sapiens, UniProt P35968) | 100%
Macrophage colony-stimulating factor 1 receptor, autoinhibited (CSF1R, Homo sapiens, UniProt P07333) | 100%
SGK2 (Homo sapiens, UniProt Q9HBY8) | 100%
FLT3 (Homo sapiens, UniProt P36888, D835Y) | 100%
STK39 (Homo sapiens, UniProt Q9UEW8) | 100%
CAMK1 (Homo sapiens, UniProt Q14012) | 100%
ALK (Homo sapiens, UniProt Q9UM73, C1156Y) | 100%
Aurora kinase B (AURKB, Homo sapiens, UniProt Q96GD4) | 100%
FLT1 (Homo sapiens, UniProt P17948) | 100%
CDK15 (Homo sapiens, UniProt Q96Q40) | 84%
MAPKAPK2 (Homo sapiens, UniProt P49137) | 100%
STK32A (Homo sapiens, UniProt Q8WU08) | 100%
FLT3 (Homo sapiens, UniProt P36888) | 93%
EIF2AK2 (Homo sapiens, UniProt P19525) | 91%
DCLK2 (Homo sapiens, UniProt Q8N568) | 100%
Tyrosine-protein kinase ABL1, phosphorylated (ABL1, Homo sapiens, UniProt P00519, Y253F) | 100%
Cyclin-dependent kinase 4, with cyclin D3 (CDK4, Homo sapiens, UniProt P11802) | 100%
PRKX (Homo sapiens, UniProt P51817) | 100%

Study 4
Cell line: mouse MPNST tumor cells
Method: high-content immunofluorescence imaging
Measured: nuclear SOX9
Concentration: 10 µM
Time: 12 h
Setting: mean of 2 replicates
Reference: DMSO control
Direction: higher = more nuclear SOX9
SMILES | nuclear SOX9 intensity
O=C(O)c1cccnc1 | 96.5 % of DMSO
CN1CCN2c3ccccc3Cc3ccccc3C2C1 (stereo not drawn) | 83.9 % of DMSO
Cc1cnc(-c2ccccc2C(C)C)nc1NCc1ccc(-n2ccnn2)cc1 | 94.7 % of DMSO
CCN1CCc2nc(N)oc2CC1 | 95.2 % of DMSO
C[C@]12CC[C@@H]3c4ccc(O)cc4C[C@@H](CCCCCCCCC[S+]([O-])CCCC(F)(F)C(F)(F)F)[C@H]3[C@@H]1CC[C@@H]2O (stereo partly drawn) | 133 % of DMSO
S=c1nc[nH]c2nc[nH]c12 | 92 % of DMSO
O=C1Nc2ccccc2C12OCC1(CO2)COC2(OC1)C(=O)Nc1ccccc12 (stereo not drawn) | 114 % of DMSO
CCOC(=O)C1Cc2ccccc2CN1C(=O)c1ccc(SC)s1 (stereo not drawn) | 105 % of DMSO
CCC(=N\O)/C(C)=C/c1ccc(F)cc1 | 108 % of DMSO
COc1cc2nc(N(C)CCCNC(=O)C3CCCO3)nc(N)c2cc1OC (stereo not drawn) | 94.5 % of DMSO
Cn1c(=O)c2c(ncn2CC(O)CO)n(C)c1=O (stereo not drawn) | 101 % of DMSO
COc1cccc(/C=N/N(C(=O)C(F)(F)F)c2ccc(C)cc2C)c1 | 107 % of DMSO
C[C@H]1CC(=O)Nc2cc(C(=O)NCCC3CC3)ccc2N1C(=O)N1CC2CC2C1 (stereo partly drawn) | 85.4 % of DMSO

Some of these lines once more (study 4):
SMILES | nuclear SOX9 intensity
C[C@]12CC[C@@H]3c4ccc(O)cc4C[C@@H](CCCCCCCCC[S+]([O-])CCCC(F)(F)C(F)(F)F)[C@H]3[C@@H]1CC[C@@H]2O (stereo partly drawn) | 133 % of DMSO
S=c1nc[nH]c2nc[nH]c12 | 92 % of DMSO
O=C1Nc2ccccc2C12OCC1(CO2)COC2(OC1)C(=O)Nc1ccccc12 (stereo not drawn) | 114 % of DMSO
CCOC(=O)C1Cc2ccccc2CN1C(=O)c1ccc(SC)s1 (stereo not drawn) | 105 % of DMSO
